Published values of several laboratories.
Each numbered part is a random draw from the data of one study; scales do not carry over between parts. Changes are numbered by the printed parent chain.

Study 1 — technique: aptamer microarray, sandwich; form: DNA with 2'F-ANA; medium: in vitro; concentration: 200 nM; with: Cy3 exosite-II aptamer, 400 nM; direction: higher = stronger binding; quantity: mean fluorescence intensity; sequence: GGTTGGTGTGGTTGG
Target: Prothrombin, mature alpha-thrombin (F2, Homo sapiens, UniProt P00734)
Notes: whole 15-mer aptamer, many near background
Modification = 2'F-ANA at 3 6 9 10 11 13; value = 431 a.u.
Modification = 2'F-ANA at 2 3 4 5 6 8 13; value = 82.2 a.u.
Modification = 2'F-ANA at 4 10 11 14 15; value = 62.1 a.u.
Modification = 2'F-ANA at 1 4 5 7 9 12 14; value = 44 a.u.
Modification = 2'F-ANA at 2 3 4 5 7 8 9 13 14; value = 55.6 a.u.
Modification = 2'F-ANA at 2 3 7 9 10 12 14 15; value = 299 a.u.
Modification = 2'F-ANA at 1 5 6 7 9 10 14 15; value = 50.8 a.u.
Modification = 2'F-ANA at 3 5 6 8 10 11 12 14 15; value = 82.6 a.u.
Modification = 2'F-ANA at 4 5 7 12 13; value = 111 a.u.
Modification = 2'F-ANA at 1 2 5 6 10 12; value = 50.8 a.u.
Modification = 2'F-ANA at 2 3 6 7 8 9 12 14; value = 394 a.u.
Modification = 2'F-ANA at 2 3 6 7 8 11 12 15; value = 817 a.u.

Study 2 — technique: protein-binding microarray; form: double-stranded DNA, one strand shown; medium: in vitro; concentration: 250 nM; notes: 60-bp whole probe; with: salmon DNA 0.4 mg/ml; relative to: random background probes; direction: higher = stronger binding; quantity: log fluorescence; shared flanks, not repeated: GCCTAGCAC … GTCTTGATTCGCTTGACGCTGCTG
Target: Interferon regulatory factor 7, full length, phosphomimetic (IRF7, Homo sapiens, UniProt Q92985, residues 1-503, S101K/S471D/S472D/S475D/S476D/S477D/S483D/S484D/S487D)
Residues (chain): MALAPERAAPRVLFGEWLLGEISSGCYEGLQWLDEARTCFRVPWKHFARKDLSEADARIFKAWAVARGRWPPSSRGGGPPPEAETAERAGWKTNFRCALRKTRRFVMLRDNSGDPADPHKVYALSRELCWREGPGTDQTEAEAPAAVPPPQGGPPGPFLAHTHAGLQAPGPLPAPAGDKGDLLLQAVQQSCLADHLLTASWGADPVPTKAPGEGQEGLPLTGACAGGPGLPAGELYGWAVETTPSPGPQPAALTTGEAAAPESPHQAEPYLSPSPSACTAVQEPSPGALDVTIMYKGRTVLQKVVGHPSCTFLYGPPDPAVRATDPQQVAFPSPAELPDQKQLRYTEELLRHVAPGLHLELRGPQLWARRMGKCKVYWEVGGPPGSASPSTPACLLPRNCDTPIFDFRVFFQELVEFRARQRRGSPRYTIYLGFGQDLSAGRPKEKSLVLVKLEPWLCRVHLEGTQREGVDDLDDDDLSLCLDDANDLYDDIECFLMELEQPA
Sequence = TTAGATATCAGTATCGATTAGTGCTAG; value = 0.764 z-score
Sequence = TTAGGTATCGGTATCGGATAGTGCTAG; value = 1.89 z-score
Sequence = ATAGGTTTCCTACTGCTTTAGTGCTAG; value = 1.12 z-score
Sequence = TTAGAACTGAGTCTTGATTAGTGCTAG; value = -0.16 z-score
Sequence = TTAGCTCTCGGACTGGGTTAGTGCTAG; value = -0.517 z-score
Sequence = TTAGGACGGCTTATCCTTTAGTGCTAG; value = -0.251 z-score
Sequence = TTAGGACTAGACTTTCGGTTAGTGCTA; value = 1.28 z-score
Sequence = CACGGTATCCTTCTCCTGACGTGCTAG; value = 0.129 z-score
Sequence = TTAGAACTGGGGTTTCGATTGGTGCTA; value = 7.34 z-score
Sequence = GACGGTTTCGGCATCGGGACGTGCTAG; value = 3.06 z-score
Sequence = TTAGGTATCGACTTTCGGTTAGTGCTA; value = 2.82 z-score
Sequence = GACGGTACCGGTATCGGGACGTGCTAG; value = 0.906 z-score
Sequence = ACCAGTTTTCTTTTCATTACGTGCTAG; value = 3.45 z-score
Sequence = GACGATTACGGGTATCGAGACGTGCTA; value = -0.292 z-score
Sequence = GACGGTATCGGGTATCCGGACGTGCTA; value = 0.116 z-score

Study 3 — target: CCNB1, cyclin fold, Cln2 fusion (human); technique: yeast growth competition, sequencing; medium: yeast; notes: weak parent motif; relative to: not given; direction: higher = stronger binding; quantity: normalised enrichment score
Starting sequence: USP37 docking peptide (human); PSAKRSLGFLPQP
Variant = P11A; value = -0.155
Variant = F9A; value = -0.238
Variant = K4A; value = 0.215
Variant = L7A; value = 0.00264
Variant = R5A; value = 0.151
Variant = P13A; value = -0.0645

Other studies, line by line
Molecule = PhoQ, residues 284 288 289 292 302 303 HSSMNL; target = PhoP, residues 12 14 15 18 19 MHTVL (Escherichia coli, UniProt P23836); test = Sort-seq, refers to: YFP reporter; system = E. coli; conditions = PhoQ-PhoP variant library, with: 10 µM Mg2+; scale = relative to: high Mg2+ state, higher = stronger signaling; quantity = fold induction; value = 0.517

A few entries again (study 2):
Sequence = GACGATTACGGGTATCGAGACGTGCTA; value = -0.292 z-score
Sequence = GACGGTATCGGGTATCCGGACGTGCTA; value = 0.116 z-score
